Assay results gathered from unrelated publications.
Protocols differ between the studies behind these lines. Values joined by “and” are separate records of one study, mostly repeats; a detail may differ. Numbers after ± are the reported error.

| Compound | cell line | assay | system | setting | how to read | quantity | result |
| --- | --- | --- | --- | --- | --- | --- | --- |
| O=C(/C=C/C=C/C=C/C1CCCCC1)NC1=C[C@@](O)(/C=C/C=C/C=C/C(=O)NC2=C(O)CCC2=O)[C@@H]2O[C@@H]2C1=O | 769-P | cell growth, CellTiter-Glo |  | 78 h |  | GI50 | 9420 nM |
| O=C(C[C@@H](C(F)F)n1ccc(F)n1)N1CCC(O)(Cn2cnc3c(cnn3-c3ccc(F)cc3)c2=O)CC1 | CHP-212 resistant | annexin V/PI flow cytometry |  | 0.1 µM, 48 h |  | late apoptotic cells | 6.37% and 11% and 6.27% |
| CC/C(=N\NC(=O)NCc1cccc(O)c1)c1ccc(O)c(C)c1O | SK-OV-3 | Western blot, measured: YAP |  | 10 µM, 3 h, 2D culture, unit not given | relative to: β-actin | protein level | 1.39 ± 0.25 |
| CC(C)C(=O)Nc1n[nH]c2cc(-c3cccc(NS(=O)(=O)C4CC4)c3)ccc12 | HEK293T | flow cytometry, measured: surface LRP6 |  | concentration not given, 8 h, with: WNT3A |  | LRP6-positive cells | 21% |
| CCn1cc(-c2cc(Cn3ccoc3=N)cc3c2CCN([C@@H](C)c2cc(OC)ccn2)C3=O)c(C(F)(F)F)n1 | SNU-398 | cell growth, inhibitor |  | 120 h |  | EC50 | 289 nM |
| Cc1ccc(CNC(=O)Cn2cc(CSc3nc4ccccc4[nH]3)nn2)cc1 | HEK293 | MTT |  | 3.91 ppm |  | cytotoxicity | 19.9% |
| Cc1n(Cc2ccc3ccccc3n2)cc[n+]1Cc1ccc2ccccc2c1.[Br-] | NSCLC cell lines |  |  | lower end of range |  | TGI | ≥ 671 nM |
| C=C[C@@]1(C)CC(=O)[C@]2(O)[C@@]3(C)[C@@H](O)CCC(C)(C)[C@@H]3[C@H](O)[C@H](OC(C)=O)[C@@]2(C)O1 | PBMC | MSD |  | 10 µM, unit not given, with: PGE2 | relative to: DMSO | cAMP level difference | -3.84 |
| COc1ccc(N(CC2CCC2)S(=O)(=O)C2CC3OC2C(c2ccc(O)cc2)=C3c2ccc(O)cc2)cc1 (stereo not shown) | MCF7 3xERE-luc, steroid-deprived | ERE luciferase reporter, agonist |  |  | relative to: vehicle | Emax | -8.4% |
| C=CC1=C(C)c2cc3[n-]c(cc4nc(cc5[n-]c(cc1n2)c(C)c5C=C)C(C)=C4CCC(=O)O)c(CCC(=O)O)c3C.[Zn+2] | SH-SY5Y | RNA-seq, measured: FOSL1 mRNA |  | 5 µM, 5 h | relative to: untreated cells | fold change | 1.97 |
| Cn1cc(-n2cnc3c(NCc4nc5cc(Cl)c(Cl)cc5[nH]4)nc(N4CCOCC4)nc32)cn1 | MDA-MB-231 | qRT-PCR, measured: BRCA1 |  | 50 nM, 6 h, unit not given | relative to: untreated | mRNA level | 0.322 |
| CNC(=O)c1ccc(N2C(=S)N(c3ccc(C#N)c(C(F)(F)F)c3)C(=O)C2(C)C)cc1F | VCaP | cell proliferation, CCK-8 |  | 4000 nM |  | inhibition | 34.3% |
| Cn1nc(C(C)(C)C)cc1NC(=O)Cc1ccc(Nc2ncnc3sccc23)cc1 | LC-2/ad | resazurin |  | concentration not given |  | growth inhibition | decreased |
| CC(=O)Nc1cccc(C(=O)Nc2ccc(Nc3nccc(-c4cccnc4)n3)c(C)c2)c1 | AP1 reporter HEK293 | AP1 reporter gene, inhibitor |  | 10 µM, 6 h, compound washed out, unit not given, with: PMA | relative to: PMA alone | reporter activity | 1.11 |
| Cc1cc(Nc2ncc(Cl)c(Nc3ccccc3S(=O)(=O)C(C)C)n2)c(OC(C)C)cc1C1CCNCC1 | CLB-GE | phosphoproteomics LC-MS/MS, measured: MELK phosphorylation |  | 200 nM, 60 min | relative to: untreated | log2 fold change | -1.66 |
| Cc1cccc(-c2[nH]c(CNc3ccccc3F)nc2-c2ccc3ncnn3c2)n1 | bone marrow CD138+ myeloma cells | XTT |  | 1.6 µM, phenol red-free RPMI |  | viability | 9% |
| c1ccc2nc(Cn3c[n+](Cc4ccc5ccccc5n4)c4ccccc43)ccc2c1 | NSCLC cell lines | NCI60 one-dose screen |  | 10 µM |  | mean growth percentage | 44.2% |
| NNc1nc(-c2ccc(Cl)cc2)c2c(NC(=O)c3ccccc3)nnc-2[nH]1 | SF-539 | SRB |  | 10 µM, NCI60 single-dose screen | relative to: untreated | cell growth | 96.4% |
| O=C(Nc1c(Cl)cncc1Cl)c1ccc(OC(F)F)c(OCC2CC2)c1 | PBMC | MSD |  | 0.01 µM, unit not given, with: PGE2 | relative to: DMSO | cAMP level difference | -2.61 |
| C=C(C)[C@@H]1CC[C@]2(C)CC[C@]3(C)[C@H](CC[C@@H]4[C@@]5(C)CC[C@H](O)C(C)(C)[C@@H]5CC[C@]43C)[C@@H]12 | SIM-A9 mouse microglia | Griess |  | 10.7 µM, with: LPS 100 ng/mL |  | nitric oxide production inhibition | inactive |
| COc1cnc2cccc(N3CCc4c(cc(Cn5ccnc5C)cc4-c4cn(C)nc4C(F)(F)F)C3=O)c2c1 | ARH-77 | cell growth, inhibitor |  | 120 h |  | EC50 | 20500 nM |
| c1ccc(-c2n(Cc3ccc4ccccc4c3)cc[n+]2Cc2ccc3ccccc3c2)cc1 | NSCLC cell lines |  |  | 10 µM, average over cell lines | relative to: untreated | growth | -27% |
| C=CC(=O)Nc1cc(Nc2nccc(Nc3cc(Cl)c(F)cc3C(C)(C)O)n2)c(OC)cc1N1CC[C@@H](N(C)C)C1 | NCI-H2073 EGFR ASV knock-in | cell proliferation, CellTiter-Glo |  |  | relative to: knock-in over parental NCI-H2073 | selectivity ratio | 1 |
| O=C(N[C@H]1CC[C@H](C(=O)O)CC1)[C@@H]1NC2(CCCCC2)[C@@]2(C(=O)Nc3cc(Cl)ccc32)[C@H]1c1cccc(Cl)c1F | RS4;11 | qRT-PCR, measured: p53 target genes |  | concentration not given, 3 h |  | mRNA level | no effect |
| CCn1cc(-c2cc(Cn3ccnc3)cc3c2CCN([C@H](c2cc(OC)ccn2)C2CC2)C3=O)c(C(F)(F)F)n1 | LS-513 | cell growth, inhibitor |  | 120 h |  | EC50 | 1140 nM |

| Compound | cell line | assay | system | setting | how to read | quantity | result |
| --- | --- | --- | --- | --- | --- | --- | --- |
| O=C(O)CNC(=O)Cc1ccccc1 | mouse ventricular cardiomyocytes |  |  | 100 µM, with: isoproterenol |  | sarcomere shortening | 0.084 µm and 0.053 µm and 0.102 µm and 0.119 µm and 0.085 µm |
| Cl.Cl.NCCNS(=O)(=O)c1ccc(Cl)c2ccncc12 | SK-OV-3 | ATP | 2D monolayer culture | 0.01 µM, 4 days | relative to: untreated | relative cell number | 119% |
| CC(C)NCC(O)c1ccc(O)c(O)c1 (stereo not shown) | mouse ventricular cardiomyocytes |  |  | dose not given, 0.315 s |  | sarcomere length | 1.8 µm |
| CC#CC(=O)N1CCC[C@H]1c1nc(-c2ccc(C(=O)Nc3ccccn3)cc2)c2c(N)nccn12 | TMD8 wild-type | calcium flux, FLIPR |  | 2 h preincubation, with: anti-IgM |  | maximum inhibition | 84.6% |
| CC[C@H](CO)Nc1nc(NCc2ccc(-c3ccccn3)cc2)c2ncn(C(C)C)c2n1 | NCI-60 cell lines |  |  | mean |  | GI50 | 190 nM |
| COc1cc(N2CCC(N3CCN(C)CC3)CC2)ccc1Nc1ncc(Cl)c(Nc2ccccc2P(C)(C)=O)n1 | Ba/F3 EML4-ALK v3 | cell viability |  |  |  | Emax | 100% |
| CCCCN1C[C@H](O)[C@@H](O)[C@@H](O)[C@H]1CO | sample C patient fibroblasts | Gb3 level lowering, LC-MS/MS, measured: Gb3 d18:1/18:0 |  | 216 h |  | IC50 | 5600 nM |
| COc1ccc(-n2nc(C(C)=O)s/c2=N\N=C(/C)c2ccc(NC(=O)c3ccc(Cl)cc3)cc2)cc1 | HepG2 |  |  | 0.625 µM |  | toxicity | 87.6% |
| Cn1cc(-c2ccc(-c3cncc(Cl)c3N3CCC4(CCNC4=O)CC3)cc2)cn1 | COLO 205 | gene expression, microarray, measured: HIST1H4A mRNA |  | concentration not given, 2 h | relative to: untreated cells | log2 fold change | -2.48 |
| Cc1ccc2c(c1)C(=O)[C@]1(O)CCN(c3ccc4nc(C)ccc4c3)C1=N2.Cl | murine cells | polysome RT-qPCR, measured: Myh9 |  | concentration not given |  | polysomal mRNA increase | ~50% |
| CCCCc1nc(Cl)c(CO)n1Cc1ccc(-c2ccccc2-c2nn[nH]n2)cc1 | human PBMC | RNA-seq, measured: NIPAL1 mRNA |  | 10 µg/mL, 24 h | relative to: untreated control | log2 fold change | -2.27 |
| Cc1c(C(=O)O)ccc2c3n(nc12)[C@@H]1[C@H](C3)N(CC2CC2)[C@@]2(C(=O)Nc3cc(Cl)ccc32)[C@H]1c1cccc(Cl)c1F | SNU-719 (MDM2 non-amplified) | cell proliferation, alamarBlue |  | 120 h |  | GI50 | 10 nM |
| Nc1ncnc2c1ncn2[C@@H]1O[C@H](CO)[C@@H](O)[C@H]1O | activated human T cells |  |  | 100 µM | higher = more proliferation | T cell proliferation | 0.85 a.u. and 0.7 a.u. and 1.1 a.u. |
| COc1ccc([C@H]2N(c3ccc(Cl)c(Cl)c3)C(=O)[C@@H]3CCCN32)c(OC)c1OC (racemic) | PC-12, differentiated |  |  | 50 µM, 4 days |  | mutant huntingtin-induced cytotoxicity | decreased |
| C=CC(=O)N1CCC[C@@H](c2ccc(C(N)=O)c3[nH]ccc23)C1 | TMD8 wild-type | calcium flux, FLIPR |  | 2 h preincubation, with: anti-IgM |  | maximum inhibition | 42.3% |
| c1cnc2c(c1)ccc1cccnc12 | HEK293T |  |  | 25 µg/mL | relative to: albendazole | IL-4 mRNA level | decreased |
| CC(=O)c1c(O)c(C)c(O)c2c1OC1=CC(=O)C(C(C)=O)C(=O)C12C (single isomer, unassigned; (+)) | hepatocytes, iPSC-derived, line W3 | cell viability |  | 24 h |  | IC50 | 54000 nM |
| C=CCn1c(=O)c2cnc(Nc3ccc(N4CCN(C)CC4)cc3)nc2n1-c1ccc2c(n1)[C@@](O)(CC)CC2 | MDA-MB-231 | flow cytometry |  | concentration not given |  | S phase mitotic cells | 1.65% |
| COc1ccc(-c2coc3cc(O)ccc3c2=O)cc1 | Caco-2 monolayers |  |  | 100 µg/mL, 15 min | relative to: 0 min value | TEER | ≤ 120% |
| O=c1[nH]nc(OCCCc2ccc(Cl)cc2)c(NCc2cccnc2)c1Br | HEK-293T | RNA-seq GSEA, measured: HALLMARK_COAGULATION |  | concentration not given | direction not given | normalized enrichment score | 0.926 |
| S=c1n(Cc2ccc3ccccc3c2)c2ccccc2n1Cc1ccc2ccccc2c1 | NSCLC cell lines | NCI60 one-dose screen |  | 10 µM |  | mean growth percentage | 84.8% |
| CC(=O)Nc1cc(Oc2ccc3c(nc(Nc4ccc(F)cc4F)n3C)c2C)ccn1 | MUTZ5 B-ALL cells | CellTiter-Glo |  | concentration not given, 3 d |  | cell proliferation | inhibited |
| Cn1c(Nc2nc3ccc(C(F)(F)F)cc3s2)nc2cc(C(=O)NCCOCCO)ccc21 | SH-SY5Y | RNA-seq, measured: SYNJ2 mRNA |  | 5 µM, 5 h | relative to: untreated cells | fold change | 2.97 |
| COc1cccc(C2CC(c3ccccc3OC)n3nc(N)nc3N2)c1 (stereo not shown) | MEF with TRE-FLAG-LMNB1 | LMNB1 level, high-content screening |  | 250 µM |  | maximum inhibition | 3% |
